Results pooled from the literature.
Compare with care: the assays were run in different laboratories. “And” joins repeats or separate records; there may be more than shown. Numbers after ± are the reported error.

Structure (SMILES)	assay	test system	conditions	how to read	endpoint	value
Cc1cc(C)c(CNC(=O)c2cc(Cl)c3c(c2C)O[C@@](C)([C@H]2CC[C@H](N(C)C)CC2)O3)c(=O)[nH]1		relapsed/refractory NHL patients, PTCL	oral, dose not given		best overall response PD	23.1%
O=C(OC(C(F)(F)F)C(F)(F)F)N1CCN(Cc2cccc(Oc3ccccc3)c2)CC1	PET	rhesus monkey, hippocampus	intravenous, 0.01 mg/kg, pretreatment blocking, with: [18F]T-401		tracer distribution volume	6.49 mL/cm3
C[C@H](NC(=O)c1c(C(F)F)nn(C)c1Oc1cccc(C(F)(F)F)c1)c1ccc(C(=O)O)cc1	irRECIST	human, advanced tumours	750 mg	best overall response	not evaluable	14.3%
COc1cc(Nc2ncc3c(n2)-c2ccc(Cl)cc2C(c2c(F)cccc2OC)=NC3)ccc1C(=O)O		female NOD/scid mice, ALL-19 B-precursor ALL xenograft	5.2 mg/kg, 5 days weekly, score scale 0 to 10	direction not given	median response score	2
CCOc1c([C@H](C)n2nc(C)c3c(N)ncnc32)cc(Cl)c(F)c1[C@@H]1CNC(=O)C1	Olink proximity extension, refers to: FcRL2	human FL or MZL patients, plasma	dose not given, week 8 day 1, once-daily dosing	baseline: baseline	percent change in level	-58%
Cc1cc(C)c(CNC(=O)c2cc(Cl)c3c(c2C)O[C@@](C)([C@H]2CC[C@H](N(C)C)CC2)O3)c(=O)[nH]1	IWG criteria	relapsed/refractory AITL patients	dose not given		best response not assessed	5%
CCCCCN1C[C@H](O)[C@@H](O)[C@H](O)[C@@H]1CO		Hexb-/- mouse, cerebral cortex	300 mg/kg/day, unit not given	baseline: 30 mg/kg/day	decreased sphingolipid species	24
CCO[C@H]1CCN(Cc2c(OC)cc(C)c3[nH]ccc23)[C@H](c2ccc(C(=O)O)cc2)C1		PNH patients, blood	oral, 25 mg then 100 mg, week 12, mean percent change	baseline: baseline	C3d-positive type III RBCs	-87.7%
CCc1c(C)nc(-c2ccc(Cl)s2)nc1Nc1ccc(CC(=O)O)cc1		C57BL/6J mouse, high-fat diet MASH model, white adipose tissue	intraperitoneal, 0.3 mg/kg daily, 60% fat diet for 12 weeks, dosed final four weeks	baseline: untreated	adipocyte area	no effect
N#Cc1ccn2c(-c3ccncc3)c(-c3ccc(F)cc3)nc2c1	kinase binding, competitor, MIB/MS competition, refers to: CKA1	Candida albicans cell lysate	1 µM	baseline: DMSO	log2 fold change	0.289
C=CCn1c(=O)c2cnc(Nc3ccc(N4CCN(C)CC4)cc3)nc2n1-c1ccc2c(n1)[C@@](O)(CC)CC2		MIA PaCa-2, BALB/c nude mice, xenograft	oral, 80 mg/kg once daily, day 28	baseline: vehicle	tumour volume difference	733 ± 40 mm3
Cc1ccc(C(=O)OCc2ccc([C@@H](CN)C(=O)Nc3ccc4cnccc4c3)cc2)c(C)c1	tonometry	Macaca cyclopis, ocular normotensive	ocular, 0.02%, 52 h		IOP	14.3 mmHg
O=S(=O)(NCCNC/C=C/c1ccc(Br)cc1)c1cccc2cnccc12		mouse zygotes	20 µM, 96 h post-hCG		embryos reaching 8-cell	0%
COc1cc(O)c(CC=C(C)C)c(O)c1C(=O)/C=C/c1ccc(O)cc1	glucose tolerance test	male Tac:SW germ-free mice, high-fat diet	in diet, 60 mg/kg/day, 10 weeks, 60 min after glucose load		blood glucose	303 mg/dL
C[C@H]1C[C@H]2CSC(N)=N[C@@]2(c2nc(NC(=O)c3ccc(OC(F)F)cn3)cs2)CO1	refers to: total Aβ	healthy adults, plasma	50 mg once daily, day 7	baseline: placebo	percent change from baseline	-63%
CCCCC1C(=O)N(c2ccccc2)N(c2ccccc2)C1=O	carrageenan paw oedema	albino rat	oral, 50 mg/kg, 3 h	baseline: vehicle	inhibition	44.6%
COc1ncnn2ccc(-c3cnc4nc(C)n(Cc5nnc([C@@H](C)F)o5)c4c3)c12		relapsed or refractory AML, MDS	dose not given, splicing factor mutation-negative		best overall response CRi	0%
O=C(O)C1=CC(=C(c2ccc(O)c(C(=O)O)c2)c2ccc(O)c(C(=O)O)c2)C=CC1=O	flow cytometry	C57BL/6J mouse MC-38 tumour, tumour-infiltrating lymphocytes	peritumoral, dose not given, 2 cycles	baseline: vehicle	CD4+ T cells in CD3+	decreased
c1ccc(-c2n[nH]cc2-c2ccnc3ccccc23)nc1	kinase binding, competitor, MIB/MS competition, refers to: CTK1	Candida albicans cell lysate	100 nM	baseline: DMSO	log2 fold change	0.64
OC[C@H]1O[C@@H](c2ccc(Cl)c(Cc3ccc(O[C@H]4CCOC4)cc3)c2)[C@H](O)[C@@H](O)[C@@H]1O		Japanese type 1 diabetes patients	25 mg, day 28, 672 h	baseline: baseline	diastolic blood pressure change	1.5 mmHg
O=P(O)(O)C(Cl)(Cl)P(=O)(O)O	astrogliosis, immunostaining	Mus musculus, subarachnoid haemorrhage model, hippocampal fissure	dose not given, day 1	baseline: total area	GFAP-positive area	4.11%
Nc1cccc2c1C(=O)N(C1CCC(=O)NC1=O)C2=O (centres unmarked)	deuterium-hydrogen exchange	aqueous phosphate buffer	pH 7.4, 37 °C		exchange rate constant	-0.0164 h⁻¹
Cc1n[nH]c2ccc(-c3cc(OC[C@@H](N)Cc4ccccc4)cnc3-c3ccoc3)cc12	kinase binding, competitor, MIB/MS competition, refers to: TOR1	Candida albicans cell lysate	10 µM	baseline: DMSO	log2 fold change	-1.59
N#Cc1ccc2c(c1)[C@H]1CCCN(C(=O)c3ccc4[nH]cnc4c3)[C@H]1C2		human, plasma	160 mg, day 15, 360 h	baseline: placebo and baseline	change in fasting insulin	7.5%

Structure (SMILES)	assay	test system	conditions	how to read	endpoint	value
O=C(O)CNC(=O)C(CS)Cc1ccccc1 (centres unmarked)	LC-MS/MS, refers to: extracellular Leu-enkephalin	mouse striatal brain slices	10 µM, 20 min, with: 50 mM KCl		Leu-enkephalin concentration	4420 pM and 1340 pM and 1610 pM and 7710 pM and 596 pM and 1110 pM and 1460 pM
Cc1cn(-c2ccc3n(c2=O)CCN([C@@H](C)[C@@H]2CC[C@H](c4cc(F)c(Cl)cc4C(F)(F)F)O2)C3=O)cn1	refers to: Aβ37	human, cerebrospinal fluid	150 mg single dose, Tmax	baseline: placebo-adjusted baseline	change in CSF level	139%
N#Cc1ccc2c(-c3ccncc3)c(-c3ccc(F)cc3)nn2c1	kinase binding, competitor, MIB/MS competition, refers to: RIM11	Candida albicans cell lysate	100 nM	baseline: DMSO	log2 fold change	-0.392
COc1ccc2c(c1)CN(Cc1ccc(C(=O)O)cc1)CCS2		exercised mdx mice	10 mg/kg, 2 weeks		forelimb grip strength	0.173 ± 0.007 kgf
O=C1Nc2cc3[nH]nc(-c4ccncc4)c3cc2CN1Cc1ccccc1	RECIST v1.1	human, relapsed or refractory advanced solid tumours	intravenous, 5.4 mg/kg, pooled schedules		complete response, best response	0%
CN[C@@H](C)C(=O)N[C@H]1CN(S(=O)(=O)c2cccc(S(=O)(=O)N3CC[C@H]4CC[C@@H](C(=O)NC(c5ccccc5)c5ccccc5)N4C(=O)[C@@H](NC(=O)[C@H](C)NC)C3)c2)CC[C@H]2CC[C@@H](C(=O)NC(c3ccccc3)c3ccccc3)N2C1=O	RECIST 1.1	advanced pancreatic cancer patients	dose not given, no prior therapy, with: AG		best response progressive disease	0%
C[C@H](Oc1ccc(Br)cc1-c1ccon1)C(=O)O	muscle velocity recovery cycles	human, tibialis anterior muscle	200 mg once daily, multiple doses, multiple ascending dose	baseline: placebo	latency	0.232 ms
CCN1CCN(Cc2ccc(Nc3ncc(F)c(-c4cc(F)c5nc6n(c5c4)[C@H](C)CCC6)n3)nc2)CC1		human advanced solid tumours	300 mg, phase Ia monotherapy RECIST 1.1		not evaluable response	0%
OC(CCN1CCCCC1)(c1ccccc1)C1CC2C=CC1C2 (centres unmarked)	resting-state EEG	healthy elderly humans	oral, 4 mg, eyes closed, LS mean	baseline: baseline	change in EEG Beta1-power Fz-Cz	-7.9%
O=C(O)CNC(=O)Cc1ccccc1		ventricular cardiomyocytes, C57BL/6 mouse	dose not given, 0.684 s		sarcomere length	1.72 µm
NC(=O)c1cnc2[nH]ccc2c1N[C@@H]1[C@@H]2CC3C[C@H]1C[C@@](O)(C3)C2	flow cytometry, refers to: CD8+ naive T cells	Japanese healthy subjects, peripheral blood	oral, 100 mg twice daily, day 4		change from baseline	-2.6%
CN(C)C(=O)c1cc2cnc(Nc3ccc(N4CCNCC4)cn3)nc2n1C1CCCC1	RNA-seq GSEA, refers to: HALLMARK_HEDGEHOG_SIGNALING	MB002 tumour	concentration not given, in vivo	baseline: vehicle, direction not given	GSEA enrichment score	-0.498
CN[C@@H]1COc2c(S(=O)(=O)NC(=O)Nc3c4c(cc5c3CCC5)CCC4)cnn2C1	refers to: IL-18	human participants, whole blood ex vivo	450 mg single dose, 8 h, IL-18, circulating, adjusted for, with: LPS/ATP	baseline: baseline	inhibition	134%
O=C(COc1ccc(Cl)cc1)NC12CC(c3nnc([C@H]4C[C@@H](OC(F)(F)F)C4)o3)(C1)C2		healthy human, PBMC	oral, 200 mg single dose, day 2, 24 h post-dose, median, with: sodium arsenite ex vivo	baseline: baseline	CHAC1 mRNA change	-41.7%
CC(=O)O[C@@]12CO[C@@H]1C[C@H](O)[C@@]1(C)C(=O)[C@H](O)C3=C(C)[C@@H](OC(=O)[C@H](O)[C@@H](NC(=O)OC(C)(C)C)c4ccccc4)C[C@@](O)([C@@H](OC(=O)c4ccccc4)[C@H]21)C3(C)C	Western blot	male NRG mouse, CWR22Rv1 xenograft, tumour	dose not given, day 16		AR-V7 protein level	decreased
CN(C)C(=O)Nc1cccc(-c2ccc(N(C)C)cc2)c1		mouse HFD-fed	dose not given, 72 h	baseline: vehicle	cumulative food intake	106% and 82.5% and 94.3% and 117%
N#Cc1ccc2c(c1)[C@H]1CCCN(C(=O)c3ccc4[nH]cnc4c3)[C@H]1C2	refers to: androstenedione	human female, Phase II trial	oral, 80 mg once daily, last treatment, HPA axis, mean		plasma level	4.16 nmol/L
CC(C)NCC(O)c1ccc(O)c(O)c1 (centres unmarked)		ventricular cardiomyocytes, C57BL/6 mouse	dose not given, 0.608 s		sarcomere length	1.69 µm
C[C@H]1O[C@@H](O[C@H]2CC[C@@]3(C)[C@@H](CC[C@]4(C)[C@@H]3C=C[C@]35OC[C@@]6(CCC(C)(C)C[C@H]63)[C@@H](O)C[C@]54C)[C@]2(C)CO)[C@H](O)[C@@H](O[C@@H]2O[C@H](CO)[C@@H](O)[C@H](O)[C@H]2O)[C@H]1O		mouse, chronic-plus-binge ethanol, plasma	dose not given, low dose		AST/ALT ratio	1.91 and 1.67 and 2.03 and 2.17
CCCCc1nc2c(N)nc3ccccc3c2n1Cc1ccc(CN)cc1	TNF-α release, ELISA	PBMC, human	24 h		concentration	~10 µM
CC(c1cc2ccccc2s1)N(O)C(N)=O (centres unmarked)	refers to: PGD2	human whole blood	3 µM, with: Escherichia coli		amount	134 ± 90 pg/mL blood
CC(C)[C@H](C(=O)Nc1ccc(C(=O)NO)cc1)c1ccccc1	volumetric MRI	human, left parieto-occipital meningioma	dose not given, day 1512	baseline: baseline	tumour volume change	231%
Cc1c(C)n(Cc2cccc(OC(C)(C)C(=O)O)c2)c2ccc(C(=O)N[C@@H](C)c3ccc(C(C)(C)C)cc3)cc12		C57BL/6 mouse, diet-induced obesity, L4 vertebra	dose not given		bone volume	0.314 ± 0.103 mm3

A few entries again:
Structure (SMILES)	assay	test system	conditions	how to read	endpoint	value
O=S(=O)(NCCNC/C=C/c1ccc(Br)cc1)c1cccc2cnccc12		mouse zygotes	20 µM, 96 h post-hCG		embryos reaching 8-cell	0%
CN(C)C(=O)Nc1cccc(-c2ccc(N(C)C)cc2)c1		mouse HFD-fed	dose not given, 72 h	baseline: vehicle	cumulative food intake	106% and 82.5% and 94.3% and 117%
O=C(COc1ccc(Cl)cc1)NC12CC(c3nnc([C@H]4C[C@@H](OC(F)(F)F)C4)o3)(C1)C2		healthy human, PBMC	oral, 200 mg single dose, day 2, 24 h post-dose, median, with: sodium arsenite ex vivo	baseline: baseline	CHAC1 mRNA change	-41.7%
CCOc1c([C@H](C)n2nc(C)c3c(N)ncnc32)cc(Cl)c(F)c1[C@@H]1CNC(=O)C1	Olink proximity extension, refers to: FcRL2	human FL or MZL patients, plasma	dose not given, week 8 day 1, once-daily dosing	baseline: baseline	percent change in level	-58%
CN[C@@H](C)C(=O)N[C@H]1CN(S(=O)(=O)c2cccc(S(=O)(=O)N3CC[C@H]4CC[C@@H](C(=O)NC(c5ccccc5)c5ccccc5)N4C(=O)[C@@H](NC(=O)[C@H](C)NC)C3)c2)CC[C@H]2CC[C@@H](C(=O)NC(c3ccccc3)c3ccccc3)N2C1=O	RECIST 1.1	advanced pancreatic cancer patients	dose not given, no prior therapy, with: AG		best response progressive disease	0%
NC(=O)c1cnc2[nH]ccc2c1N[C@@H]1[C@@H]2CC3C[C@H]1C[C@@](O)(C3)C2	flow cytometry, refers to: CD8+ naive T cells	Japanese healthy subjects, peripheral blood	oral, 100 mg twice daily, day 4		change from baseline	-2.6%
